Measured values gathered from unrelated publications.
Numbered parts are unrelated; each lists some results of a single study.
UniProt P04629, sequence (whole entry, looked up): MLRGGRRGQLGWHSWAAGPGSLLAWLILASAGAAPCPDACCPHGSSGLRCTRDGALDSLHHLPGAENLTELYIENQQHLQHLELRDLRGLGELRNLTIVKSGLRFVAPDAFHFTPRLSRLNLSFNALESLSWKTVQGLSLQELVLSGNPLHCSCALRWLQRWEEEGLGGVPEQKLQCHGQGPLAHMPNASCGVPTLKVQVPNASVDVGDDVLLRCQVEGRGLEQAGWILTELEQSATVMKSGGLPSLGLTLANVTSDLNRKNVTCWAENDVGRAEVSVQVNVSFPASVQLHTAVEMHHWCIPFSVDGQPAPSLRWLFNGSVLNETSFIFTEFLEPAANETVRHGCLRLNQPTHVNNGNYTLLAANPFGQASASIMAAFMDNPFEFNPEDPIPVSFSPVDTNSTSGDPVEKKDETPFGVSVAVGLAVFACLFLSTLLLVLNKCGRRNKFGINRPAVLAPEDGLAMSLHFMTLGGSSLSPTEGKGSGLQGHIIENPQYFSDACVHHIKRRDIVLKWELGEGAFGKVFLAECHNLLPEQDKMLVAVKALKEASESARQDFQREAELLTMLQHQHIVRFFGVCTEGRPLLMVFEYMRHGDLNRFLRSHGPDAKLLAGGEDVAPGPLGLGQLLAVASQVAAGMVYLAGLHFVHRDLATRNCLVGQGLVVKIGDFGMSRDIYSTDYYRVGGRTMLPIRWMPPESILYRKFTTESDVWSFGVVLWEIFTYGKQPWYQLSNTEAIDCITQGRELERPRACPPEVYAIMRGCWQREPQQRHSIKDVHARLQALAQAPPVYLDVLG
UniProt P11802, sequence (whole entry, looked up): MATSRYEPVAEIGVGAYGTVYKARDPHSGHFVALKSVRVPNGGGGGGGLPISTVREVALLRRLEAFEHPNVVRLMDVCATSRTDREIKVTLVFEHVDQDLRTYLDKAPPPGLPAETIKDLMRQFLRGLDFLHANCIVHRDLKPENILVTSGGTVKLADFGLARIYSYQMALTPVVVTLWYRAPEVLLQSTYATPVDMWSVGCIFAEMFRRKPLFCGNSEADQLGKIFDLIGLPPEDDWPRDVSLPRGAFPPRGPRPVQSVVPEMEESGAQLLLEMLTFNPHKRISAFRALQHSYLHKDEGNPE
UniProt Q6P2M8, sequence (whole entry, looked up): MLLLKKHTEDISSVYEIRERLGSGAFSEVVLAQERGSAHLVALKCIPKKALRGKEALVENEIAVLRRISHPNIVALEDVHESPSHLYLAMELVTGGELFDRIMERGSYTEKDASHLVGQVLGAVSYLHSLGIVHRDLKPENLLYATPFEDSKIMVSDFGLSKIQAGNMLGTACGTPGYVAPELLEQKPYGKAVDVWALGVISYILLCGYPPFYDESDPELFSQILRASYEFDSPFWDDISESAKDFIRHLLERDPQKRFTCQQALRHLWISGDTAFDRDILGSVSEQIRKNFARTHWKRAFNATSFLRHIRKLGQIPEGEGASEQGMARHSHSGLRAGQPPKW
UniProt P06241, sequence (whole entry, looked up): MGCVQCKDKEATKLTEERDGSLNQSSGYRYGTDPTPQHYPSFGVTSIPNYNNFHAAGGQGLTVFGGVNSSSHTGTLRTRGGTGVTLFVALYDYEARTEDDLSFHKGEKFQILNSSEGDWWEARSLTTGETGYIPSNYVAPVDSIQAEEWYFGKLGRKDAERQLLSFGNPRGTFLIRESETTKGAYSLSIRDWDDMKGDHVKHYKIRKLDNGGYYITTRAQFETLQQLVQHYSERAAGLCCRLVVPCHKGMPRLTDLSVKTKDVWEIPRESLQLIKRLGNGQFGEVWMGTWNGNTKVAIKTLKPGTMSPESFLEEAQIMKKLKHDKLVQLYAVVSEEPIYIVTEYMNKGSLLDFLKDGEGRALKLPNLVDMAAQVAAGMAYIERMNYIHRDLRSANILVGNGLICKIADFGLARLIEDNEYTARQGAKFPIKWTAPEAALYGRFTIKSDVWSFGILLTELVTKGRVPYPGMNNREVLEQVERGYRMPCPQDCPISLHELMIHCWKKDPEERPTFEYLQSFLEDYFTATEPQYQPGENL
UniProt Q13188, sequence (whole entry, looked up): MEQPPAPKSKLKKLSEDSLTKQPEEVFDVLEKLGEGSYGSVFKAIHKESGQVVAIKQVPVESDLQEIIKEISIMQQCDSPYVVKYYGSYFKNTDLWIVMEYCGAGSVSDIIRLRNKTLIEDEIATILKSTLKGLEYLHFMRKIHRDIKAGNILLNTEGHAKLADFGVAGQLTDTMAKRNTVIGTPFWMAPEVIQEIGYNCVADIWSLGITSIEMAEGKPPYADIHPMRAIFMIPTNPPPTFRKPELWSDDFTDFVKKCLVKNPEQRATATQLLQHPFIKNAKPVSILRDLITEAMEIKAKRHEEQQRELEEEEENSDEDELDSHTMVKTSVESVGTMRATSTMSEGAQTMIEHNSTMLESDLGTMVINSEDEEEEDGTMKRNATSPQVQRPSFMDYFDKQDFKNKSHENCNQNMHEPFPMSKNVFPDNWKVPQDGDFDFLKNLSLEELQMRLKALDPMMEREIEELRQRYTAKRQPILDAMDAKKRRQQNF
UniProt P49759, sequence (whole entry, looked up): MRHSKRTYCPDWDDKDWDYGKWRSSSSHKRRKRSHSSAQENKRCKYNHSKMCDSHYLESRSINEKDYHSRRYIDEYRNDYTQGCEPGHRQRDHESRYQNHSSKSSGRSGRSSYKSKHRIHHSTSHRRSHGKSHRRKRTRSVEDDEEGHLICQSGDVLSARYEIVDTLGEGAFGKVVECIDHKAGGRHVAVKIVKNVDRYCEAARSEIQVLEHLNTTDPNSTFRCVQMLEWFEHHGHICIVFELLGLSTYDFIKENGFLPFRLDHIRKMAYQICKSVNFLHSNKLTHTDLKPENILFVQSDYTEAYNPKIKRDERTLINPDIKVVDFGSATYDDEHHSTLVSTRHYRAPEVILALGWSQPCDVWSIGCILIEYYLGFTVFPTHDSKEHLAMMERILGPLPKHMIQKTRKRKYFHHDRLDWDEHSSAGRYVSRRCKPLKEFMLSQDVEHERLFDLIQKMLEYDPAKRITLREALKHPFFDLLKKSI

Set 1
Target: Eukaryotic initiation factor 4A-III (Homo sapiens, UniProt P38919)
UniProt P38919, sequence (whole entry, looked up): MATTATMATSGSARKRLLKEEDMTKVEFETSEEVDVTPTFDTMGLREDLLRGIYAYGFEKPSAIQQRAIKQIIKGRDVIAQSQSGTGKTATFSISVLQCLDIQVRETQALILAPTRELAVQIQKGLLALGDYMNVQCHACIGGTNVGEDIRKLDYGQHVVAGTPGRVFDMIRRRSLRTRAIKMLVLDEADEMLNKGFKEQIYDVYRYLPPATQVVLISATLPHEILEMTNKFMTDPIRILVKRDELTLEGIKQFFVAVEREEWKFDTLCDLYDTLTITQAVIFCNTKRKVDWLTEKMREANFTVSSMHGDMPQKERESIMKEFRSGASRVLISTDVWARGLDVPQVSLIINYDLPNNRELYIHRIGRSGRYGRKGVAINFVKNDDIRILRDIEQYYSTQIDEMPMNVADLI
Effect on: RNA clamping
Technique: fluorescence polarization
Concentration: concentration not given
Together with: FAM-labelled poly r(AG)8 RNA
SMILES	fluorescence polarization change
C#CCCC1(CCNC(=O)CCCn2c(-c3ccccc3)nc3c(c2=O)[C@@H](c2ccccc2)[C@]2(c4ccc(OC)cc4)Oc4cc(OC)cc(OC)c4[C@]32O)N=N1	4 mP
COC(=O)[C@H]1C(=O)[C@@]2(NCc3ccccc3)c3c(OC)cc(OC)cc3O[C@@]2(c2ccc(OC)cc2)[C@@H]1c1ccccc1	6.2 mP
COc1cc(OC)c2c(c1)O[C@@]1(c3ccc(Br)cc3)[C@H](c3ccccc3)[C@@H](C(=O)N(C)OC)[C@@H](O)[C@@]21O	43 mP
COc1ccc([C@@]23Oc4cc(OC)cc(OC)c4[C@]2(O)[C@@H](O)[C@H](C(=O)c2ccco2)[C@H]3c2ccccc2)cc1	16.9 mP
COC(=O)[C@@H]1[C@@H](c2ccccc2)[C@]2(c3ccc(OC)cc3)Oc3cc(OC)cc(OC)c3[C@@]23OC(c2ccc(C(F)(F)F)cc2)=N[C@@]13O	-2.1 mP
COc1ccc([C@@]23Oc4cc(OC)c(F)c(OC)c4[C@]2(O)c2nc4n(c(=O)c2[C@H]3c2ccccc2)CCC4)cc1	12.8 mP
COc1ccc([C@]23[C@H](c4ccccc4)C[C@@H](O)[C@@]2(O)c2c(F)cccc2N3C)cc1	-0.8 mP
COc1cc(OC)c2c(c1)O[C@@]1(c3ccc(Br)cc3)[C@H](c3ccccc3)C3=C(N[C@@H]4CCCN4C3=O)[C@@]21O	29.2 mP
C#CCNC(=O)CCCn1c(-c2ccccc2)nc2c(c1=O)[C@@H](c1ccccc1)[C@]1(c3ccc(OC)cc3)Oc3cc(OC)cc(OC)c3[C@]21O	7 mP
CCOC(=O)COc1cc(OC)c2c(c1)O[C@@]1(c3ccc(OC)cc3)[C@H](c3ccccc3)c3c(nc(-c4ccccc4)[nH]c3=O)[C@@]21OCC(=O)OCC	2.2 mP

Set 2
Compound: CCC(=O)N[C@@H]1CC[C@H](C(=O)N(C)c2ccc(-c3nc4ccccc4o3)cc2)C1
Effect on: cell-free assay
Technique: competition with immobilised ligand
Concentration: 1 µM
target	remaining binding [%]
BMX (Homo sapiens, UniProt P51813)	98
DDR1 (Homo sapiens, UniProt Q08345)	100
CLK1 (Homo sapiens, UniProt P49759)	100
GAK (Homo sapiens, UniProt O14976)	100
TNK1 (Homo sapiens, UniProt Q13470)	100
Ribosomal protein S6 kinase alpha-4, N-terminal kinase domain (RPS6KA4, Homo sapiens, UniProt O75676)	100
NTRK1 (Homo sapiens, UniProt P04629)	100
Tyrosine-protein kinase JAK2, JH1 (JAK2, Homo sapiens, UniProt O60674)	100
EPHB6 (Homo sapiens, UniProt O15197)	100
FYN (Homo sapiens, UniProt P06241)	85
STK3 (Homo sapiens, UniProt Q13188)	100
Tyrosine-protein kinase ABL1, phosphorylated (ABL1, Homo sapiens, UniProt P00519)	96
EPHA2 (Homo sapiens, UniProt P29317)	94
PNCK (Homo sapiens, UniProt Q6P2M8)	100
Cyclin-dependent kinase 4, with cyclin D1 (CDK4, Homo sapiens, UniProt P11802)	96
CIT (Homo sapiens, UniProt O14578)	93

Set 3
Target: Serine/threonine-protein kinase ULK1 (ULK1, Homo sapiens, UniProt O75385)
UniProt O75385, sequence (whole entry, looked up): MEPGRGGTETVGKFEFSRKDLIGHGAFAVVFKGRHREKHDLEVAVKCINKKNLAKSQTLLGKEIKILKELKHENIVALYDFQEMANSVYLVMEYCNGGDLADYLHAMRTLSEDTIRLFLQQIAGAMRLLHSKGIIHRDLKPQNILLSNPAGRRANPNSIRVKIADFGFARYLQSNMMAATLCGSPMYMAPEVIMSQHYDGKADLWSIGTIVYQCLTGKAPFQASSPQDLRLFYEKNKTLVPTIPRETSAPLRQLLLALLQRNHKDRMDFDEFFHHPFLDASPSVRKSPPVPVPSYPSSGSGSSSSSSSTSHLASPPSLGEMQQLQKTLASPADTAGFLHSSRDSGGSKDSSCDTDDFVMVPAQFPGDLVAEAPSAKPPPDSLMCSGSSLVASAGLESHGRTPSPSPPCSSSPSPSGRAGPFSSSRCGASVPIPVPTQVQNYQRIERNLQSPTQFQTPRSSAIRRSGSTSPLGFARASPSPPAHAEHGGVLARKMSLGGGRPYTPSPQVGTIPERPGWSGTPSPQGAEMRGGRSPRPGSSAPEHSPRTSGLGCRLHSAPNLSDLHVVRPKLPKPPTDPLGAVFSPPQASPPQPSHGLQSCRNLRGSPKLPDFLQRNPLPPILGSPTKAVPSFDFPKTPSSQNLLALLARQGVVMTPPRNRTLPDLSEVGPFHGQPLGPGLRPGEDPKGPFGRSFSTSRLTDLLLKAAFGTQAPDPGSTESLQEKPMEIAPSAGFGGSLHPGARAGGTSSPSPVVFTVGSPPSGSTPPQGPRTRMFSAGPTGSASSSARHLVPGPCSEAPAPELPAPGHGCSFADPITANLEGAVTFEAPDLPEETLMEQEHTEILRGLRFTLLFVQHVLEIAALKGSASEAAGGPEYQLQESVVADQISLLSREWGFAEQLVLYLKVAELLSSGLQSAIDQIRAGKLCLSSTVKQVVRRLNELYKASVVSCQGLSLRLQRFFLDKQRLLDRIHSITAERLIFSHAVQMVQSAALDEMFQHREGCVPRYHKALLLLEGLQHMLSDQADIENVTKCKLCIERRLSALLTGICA
Effect on: enzyme activity
Mode: inhibitor
Concentration: 0.5 µM
Reference: control
SMILES	remaining activity
O=C1NC(=O)c2c1c1c3ccccc3[nH]c1n1cncc21	97.2%
O=C(c1cc2cc(O)ccc2[nH]1)c1cc2cc(O)ccc2[nH]1	60.1%
c1ccc2c(-c3ccncc3)c[nH]c2c1	83.8%
COc1cccc(-c2cc(=O)c3ccccc3o2)c1N	104%
O=C1NC(=O)c2c1c1c3ccccc3[nH]c1c1[nH]c3cc(Br)ccc3c21	99.2%
CN1CCN(c2ccc3nc(-c4c(N)c5c(F)cccc5[nH]c4=O)[nH]c3c2)CC1	20.4%
O=C1Cc2c([nH]c3ccc(Br)cc23)-c2ccccc2N1	93.8%
O=C1Nc2ccc(Br)cc2/C1=C/c1cc2c([nH]1)CCCC2	69.4%
CN(C)S(=O)(=O)c1ccc2c(c1)/C(=C/c1cc3c([nH]1)CCCC3)C(=O)N2	6.13%
O=c1cc(N2CCOCC2)oc2c(-c3ccccc3)cccc12	102%
N#Cc1cnc2cnc(NCc3cccnc3)cc2c1Nc1ccc(F)c(Cl)c1	76.1%
c1ccc(-c2n[nH]c3c2oc2ccccc23)cc1	124%
CCCNC(=O)Nc1ccc(Oc2ncnc3cc(OC)c(OC)cc23)cc1Cl	83.2%
CCCCc1c(-c2ccc(OC)cc2)[nH]c2nccnc12	87.9%
Cc1ccc(S(=O)(=O)/C=C/C#N)cc1	102%
Oc1cccc(-c2nc(N3CCOCC3)c3oc4ncccc4c3n2)c1	113%
O=C1Nc2ccccc2/C1=C\c1c(Cl)[nH]c2ccccc12	106%
O=Nc1c(-c2c(O)[nH]c3cc(Br)ccc23)[nH]c2ccccc12	95.3%
COc1ccc2c(c1)c(C1=C(c3c[nH]c4ccccc34)C(=O)NC1=O)cn2CCCN(C)C	99%
Cc1cc(Nc2cc(N3CCN(C)CC3)nc(Sc3ccc(NC(=O)C4CC4)cc3)n2)[nH]n1	99.2%

Set 4
Organism: Plasmodium berghei
Mode: inhibitor
Cells: Huh-7
Strain: GFP-expressing sporozoites, liver stage
Concentration: 10 µM
Time: 24 h
Reference: untreated control
Structure (SMILES)	infection rate
CCCCN(CCCC)CCCOC(=O)c1ccc(N)cc1	112%
NC(CO)C(=O)NNCc1ccc(O)c(O)c1O (stereo not shown)	83%
CC(=O)c1ccc2c(c1)N(CCCN(C)C)c1ccccc1S2	102%
Cn1cnc([N+](=O)[O-])c1Sc1ncnc2[nH]cnc12	76.7%
COCCCOc1cc(C[C@@H](C[C@H](N)[C@@H](O)C[C@H](C(=O)NCC(C)(C)C(N)=O)C(C)C)C(C)C)ccc1OC	89%
Cc1nnc(SCC2=C(C(=O)O)N3C(=O)[C@@H](NC(=O)Cn4cnnn4)[C@H]3SC2)s1	98.4%
Oc1ncnc2[nH]ncc12	102%
O=C(O)c1cc(-c2ccc(F)cc2F)ccc1O	72.7%
O=C(OOC(=O)c1ccccc1)c1ccccc1	96.1%
COC(=O)[C@H](c1ccccc1Cl)N1CCc2sccc2C1	103%
C=C1CC[C@H](O)C/C1=C/C=C1\CCC[C@]2(C)[C@@H]([C@H](C)/C=C/[C@H](C)C(C)C)CC[C@@H]12	107%
CC(=O)O[C@]1(C(C)=O)CC[C@H]2[C@@H]3C=C(Cl)C4=CC(=O)CC[C@]4(C)[C@H]3CC[C@@]21C	66.3%
C#C[C@]1(O)CC[C@H]2[C@@H]3CCc4cc(O)ccc4[C@H]3CC[C@@]21C	155%
CCN(CC)C(=O)c1cccc(C)c1	82.6%
Oc1ccc(Cl)c2cccnc12	5.14%
